Results collected from several papers.
Lines come from different studies, so protocols differ. Several values in a cell are separate wells, animals, samples, runs or records. ± marks the error that the study gave.
SLC6A3: Sodium-dependent dopamine transporter (SLC6A3, Homo sapiens, UniProt Q01959)
Chain of UniProt Q01959 (whole entry, unmodified, looked up): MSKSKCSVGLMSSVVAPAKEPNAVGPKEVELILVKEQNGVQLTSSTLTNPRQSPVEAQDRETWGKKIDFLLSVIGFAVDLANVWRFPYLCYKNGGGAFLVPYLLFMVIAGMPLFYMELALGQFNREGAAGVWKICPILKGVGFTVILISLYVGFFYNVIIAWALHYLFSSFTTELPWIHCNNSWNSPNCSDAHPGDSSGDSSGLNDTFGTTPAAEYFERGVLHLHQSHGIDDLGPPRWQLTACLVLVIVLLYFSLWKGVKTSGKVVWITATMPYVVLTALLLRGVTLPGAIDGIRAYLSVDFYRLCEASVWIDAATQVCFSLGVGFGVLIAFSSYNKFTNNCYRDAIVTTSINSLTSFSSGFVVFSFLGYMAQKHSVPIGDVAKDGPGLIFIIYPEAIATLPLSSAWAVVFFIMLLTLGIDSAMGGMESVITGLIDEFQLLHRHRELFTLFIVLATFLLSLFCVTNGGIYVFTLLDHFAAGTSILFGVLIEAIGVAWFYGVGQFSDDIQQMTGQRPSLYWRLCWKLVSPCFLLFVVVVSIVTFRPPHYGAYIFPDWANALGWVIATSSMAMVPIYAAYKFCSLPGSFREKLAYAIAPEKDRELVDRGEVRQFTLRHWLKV

Compound	target	test	test system	conditions	scale	measurement	result
CCCC(C(=O)c1ccc2c(c1)OCO2)N1CCCC1 (stereo not drawn)	SLC6A3	transporter current, inhibitor, electrophysiology	human DAT-expressing cells	current recovery, with: dopamine 30 µM	–	koff	0.029 s⁻¹
CNCC(=O)c1ccccc1	SLC6A3	substrate release, releaser	–	–	baseline: compound EC50 over methcathinone	potency ratio	7.5 fold
CCC(CNc1nc(-c2cn3ccnc3cc2C)nc2ccccc12)c1ccccc1 (stereo not drawn)	SLC6A3	[3H]WIN35,428 binding, inhibitor	CHO-K1 expressing transporter	–	–	Emax	48.7 ± 7.58%
CN[C@]1(c2ccccc2Cl)CCCCC1=O	SLC6A3	radioligand binding, antagonist, radioligand displacement	–	30 µM	–	inhibition	35%
c1ccc2cc([C@]34CNC[C@H]3C4)ccc2c1	SLC6A3 (Homo sapiens, UniProt Q01959, F326A)	inhibitor, [3H]dopamine uptake	–	1 nM, F326A mutant	baseline: no inhibitor	dopamine uptake	131% and 129% and 84.9%
c1ccc2sc(C3(N4CCCCC4)CCCCC3)cc2c1	SLC6A3	radioligand binding, antagonist	–	reference compound	–	Hill coefficient	1.1
CCCC(C(=O)c1ccc2c(c1)OCO2)N1CCCC1 (stereo not drawn)	SLC6A3	dopamine-induced inward current, inhibitor, two-electrode voltage clamp	Xenopus oocytes expressing hDAT	0.5 µM, holding potential -60 mV, with: dopamine 5 µM	–	time to steady-state inhibition	> 5 min
CCC[C@@H](C(=O)c1ccc(C)cc1)N1CCCC1	SLC6A3	transporter current, inhibitor	–	with: dopamine 30 µM	–	maximal inhibition rate (kapp)	2.38 s⁻¹
CC(C)CC(=O)OC[C@H]1O[C@@](C#N)(c2ccc3c(N)ncnn23)[C@H](O)[C@@H]1O	SLC6A3	–	–	20 µM	–	inhibition	20%
COC(=O)[C@H]1[C@@H](OC(=O)c2ccccc2)C[C@@H]2CC[C@H]1N2C	SLC6A3	transporter current, inhibitor	–	with: dopamine 30 µM	–	maximal inhibition rate (kapp)	1.33 s⁻¹
C[C@H](C(=O)N[C@H]1COc2ccccc2[C@@H]1S(C)(=O)=O)c1ccc(F)cc1	SLC6A3	binding	–	10 µM, Eurofins selectivity panel	–	inhibition	21%
Cn1cccc1-c1cccnc1	SLC6A3	binding	–	50 µM	–	inhibition	-5.88%
